Results of several laboratories.
Each line is one published result; not all experiments were run side by side. Values joined by “and” are separate records of one study, mostly repeats; a detail may differ. ± gives the spread as reported.
RPA1 N-terminal domain: Replication protein A 70 kDa DNA-binding subunit, N-terminal domain (RPA1, Homo sapiens, UniProt P27694)
GLP1R: Glucagon-like peptide 1 receptor (GLP1R, Homo sapiens, UniProt P43220)
APP: Amyloid-beta precursor protein (APP, Homo sapiens, UniProt P05067)
FPR1: fMet-Leu-Phe receptor (FPR1, Homo sapiens, UniProt P21462)
Grm2: Metabotropic glutamate receptor 2 (Grm2, Rattus norvegicus, UniProt P31421)
Lysophospholipase-like protein 1: Lysophospholipase-like protein 1 (Mus musculus, UniProt Q3UFF7)
E3 ubiquitin-protein ligase NEDD4: E3 ubiquitin-protein ligase NEDD4 (Homo sapiens, UniProt P46934)
GRM4: Metabotropic glutamate receptor 4 (GRM4, Homo sapiens, UniProt Q14833)

Sequences of proteins named here, by UniProt entry; tags and fusion partners are left off. Residues count along the entry.
UniProt P05067, 672-713 limits assumed: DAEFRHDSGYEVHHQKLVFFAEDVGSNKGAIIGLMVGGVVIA
UniProt P05067, whole entry, looked up: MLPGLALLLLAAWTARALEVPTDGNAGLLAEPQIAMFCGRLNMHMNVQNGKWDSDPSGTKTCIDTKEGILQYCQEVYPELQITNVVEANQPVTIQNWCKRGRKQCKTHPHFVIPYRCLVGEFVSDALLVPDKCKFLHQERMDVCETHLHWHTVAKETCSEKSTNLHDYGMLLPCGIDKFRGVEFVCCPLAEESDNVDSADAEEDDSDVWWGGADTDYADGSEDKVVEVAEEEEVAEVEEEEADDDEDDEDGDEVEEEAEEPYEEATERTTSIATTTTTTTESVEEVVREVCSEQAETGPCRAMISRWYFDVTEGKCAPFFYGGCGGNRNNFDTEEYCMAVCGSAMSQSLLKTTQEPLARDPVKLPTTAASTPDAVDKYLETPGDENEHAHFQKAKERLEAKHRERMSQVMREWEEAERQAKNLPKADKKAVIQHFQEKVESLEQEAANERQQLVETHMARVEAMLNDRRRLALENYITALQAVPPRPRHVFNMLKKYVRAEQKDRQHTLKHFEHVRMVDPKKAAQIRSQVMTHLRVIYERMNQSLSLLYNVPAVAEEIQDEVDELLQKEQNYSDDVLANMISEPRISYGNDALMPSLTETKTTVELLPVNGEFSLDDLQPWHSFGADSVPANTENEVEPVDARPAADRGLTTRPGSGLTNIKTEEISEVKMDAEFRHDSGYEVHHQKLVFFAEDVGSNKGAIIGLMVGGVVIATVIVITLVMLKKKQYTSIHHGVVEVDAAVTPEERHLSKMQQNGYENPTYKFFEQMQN
UniProt Q3UFF7, whole entry: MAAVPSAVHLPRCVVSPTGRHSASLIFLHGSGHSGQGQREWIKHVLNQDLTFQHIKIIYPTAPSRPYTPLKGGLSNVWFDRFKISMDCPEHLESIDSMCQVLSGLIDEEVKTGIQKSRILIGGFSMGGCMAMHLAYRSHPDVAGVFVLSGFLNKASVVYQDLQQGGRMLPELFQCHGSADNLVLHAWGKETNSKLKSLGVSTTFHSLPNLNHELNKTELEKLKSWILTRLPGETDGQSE
UniProt P46934, whole entry, looked up: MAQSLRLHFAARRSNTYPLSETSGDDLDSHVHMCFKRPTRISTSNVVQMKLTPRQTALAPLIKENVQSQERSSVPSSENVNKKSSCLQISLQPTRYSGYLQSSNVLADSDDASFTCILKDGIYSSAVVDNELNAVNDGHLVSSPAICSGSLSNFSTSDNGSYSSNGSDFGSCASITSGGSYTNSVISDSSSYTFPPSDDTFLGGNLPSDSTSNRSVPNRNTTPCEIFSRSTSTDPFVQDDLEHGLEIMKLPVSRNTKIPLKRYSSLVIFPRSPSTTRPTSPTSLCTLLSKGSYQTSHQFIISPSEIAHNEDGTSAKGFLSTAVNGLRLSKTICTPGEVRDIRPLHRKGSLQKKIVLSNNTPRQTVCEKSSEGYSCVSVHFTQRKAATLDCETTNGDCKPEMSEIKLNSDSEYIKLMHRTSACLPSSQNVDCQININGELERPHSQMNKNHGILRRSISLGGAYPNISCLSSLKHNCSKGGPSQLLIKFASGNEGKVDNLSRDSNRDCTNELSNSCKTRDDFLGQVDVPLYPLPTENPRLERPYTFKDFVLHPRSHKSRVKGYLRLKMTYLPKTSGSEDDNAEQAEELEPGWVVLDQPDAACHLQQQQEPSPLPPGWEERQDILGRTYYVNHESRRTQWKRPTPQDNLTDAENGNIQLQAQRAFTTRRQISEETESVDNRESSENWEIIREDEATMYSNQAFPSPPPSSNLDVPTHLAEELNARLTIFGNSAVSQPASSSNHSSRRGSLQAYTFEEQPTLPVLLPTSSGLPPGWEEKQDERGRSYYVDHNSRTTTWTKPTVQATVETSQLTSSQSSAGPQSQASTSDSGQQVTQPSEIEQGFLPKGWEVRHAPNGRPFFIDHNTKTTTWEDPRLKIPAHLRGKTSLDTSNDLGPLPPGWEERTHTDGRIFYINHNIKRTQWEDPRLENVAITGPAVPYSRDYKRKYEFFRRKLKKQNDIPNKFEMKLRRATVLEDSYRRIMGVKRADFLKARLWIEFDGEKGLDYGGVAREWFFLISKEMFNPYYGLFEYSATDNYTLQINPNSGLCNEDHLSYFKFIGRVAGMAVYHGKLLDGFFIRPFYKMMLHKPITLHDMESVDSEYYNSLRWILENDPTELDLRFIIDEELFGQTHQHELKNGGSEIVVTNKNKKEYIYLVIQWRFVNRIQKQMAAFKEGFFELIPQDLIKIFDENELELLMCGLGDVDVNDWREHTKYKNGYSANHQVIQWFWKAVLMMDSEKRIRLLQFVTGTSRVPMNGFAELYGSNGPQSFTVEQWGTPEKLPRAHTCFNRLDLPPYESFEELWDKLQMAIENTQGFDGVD
UniProt Q14833, 33-912 limits assumed: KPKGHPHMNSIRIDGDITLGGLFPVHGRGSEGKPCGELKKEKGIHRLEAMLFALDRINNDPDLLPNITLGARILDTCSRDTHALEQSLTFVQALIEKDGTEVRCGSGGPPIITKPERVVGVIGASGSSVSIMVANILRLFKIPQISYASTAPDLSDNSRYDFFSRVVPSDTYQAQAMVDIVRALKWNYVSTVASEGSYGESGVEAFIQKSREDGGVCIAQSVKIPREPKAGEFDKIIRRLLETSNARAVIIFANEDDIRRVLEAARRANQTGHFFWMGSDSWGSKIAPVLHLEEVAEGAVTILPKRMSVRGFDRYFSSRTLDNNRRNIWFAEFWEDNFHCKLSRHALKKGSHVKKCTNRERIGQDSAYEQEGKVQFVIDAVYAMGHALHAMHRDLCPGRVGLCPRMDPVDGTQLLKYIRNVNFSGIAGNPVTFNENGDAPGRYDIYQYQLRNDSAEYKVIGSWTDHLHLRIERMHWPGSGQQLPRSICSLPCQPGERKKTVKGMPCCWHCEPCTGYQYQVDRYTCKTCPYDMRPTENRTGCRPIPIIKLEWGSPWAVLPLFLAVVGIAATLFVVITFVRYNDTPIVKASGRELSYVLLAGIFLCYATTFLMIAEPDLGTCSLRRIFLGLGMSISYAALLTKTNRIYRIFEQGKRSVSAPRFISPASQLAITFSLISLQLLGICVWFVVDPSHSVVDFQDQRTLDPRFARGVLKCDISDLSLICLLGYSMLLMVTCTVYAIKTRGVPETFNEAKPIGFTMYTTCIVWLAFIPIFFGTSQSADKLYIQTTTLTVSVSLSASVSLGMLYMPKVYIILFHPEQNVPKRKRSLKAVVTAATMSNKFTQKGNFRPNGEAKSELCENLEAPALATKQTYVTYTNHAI
UniProt P21980, whole entry: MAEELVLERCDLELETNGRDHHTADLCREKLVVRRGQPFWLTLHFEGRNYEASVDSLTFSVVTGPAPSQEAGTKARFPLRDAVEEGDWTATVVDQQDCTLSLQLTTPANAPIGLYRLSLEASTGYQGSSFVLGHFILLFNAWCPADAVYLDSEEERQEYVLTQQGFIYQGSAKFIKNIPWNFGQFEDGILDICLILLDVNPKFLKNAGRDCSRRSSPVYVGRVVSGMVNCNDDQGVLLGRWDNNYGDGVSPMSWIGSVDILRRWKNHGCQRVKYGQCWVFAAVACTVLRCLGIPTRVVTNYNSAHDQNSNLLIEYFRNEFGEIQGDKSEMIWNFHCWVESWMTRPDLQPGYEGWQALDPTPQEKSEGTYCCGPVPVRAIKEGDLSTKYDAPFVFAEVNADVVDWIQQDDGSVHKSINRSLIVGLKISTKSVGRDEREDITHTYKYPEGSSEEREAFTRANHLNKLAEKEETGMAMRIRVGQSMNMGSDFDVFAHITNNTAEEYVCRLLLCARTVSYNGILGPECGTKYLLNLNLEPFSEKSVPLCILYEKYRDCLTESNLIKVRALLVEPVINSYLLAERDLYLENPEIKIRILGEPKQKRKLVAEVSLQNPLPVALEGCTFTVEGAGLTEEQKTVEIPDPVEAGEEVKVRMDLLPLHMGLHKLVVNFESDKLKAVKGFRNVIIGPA
UniProt Q96SW2, whole entry: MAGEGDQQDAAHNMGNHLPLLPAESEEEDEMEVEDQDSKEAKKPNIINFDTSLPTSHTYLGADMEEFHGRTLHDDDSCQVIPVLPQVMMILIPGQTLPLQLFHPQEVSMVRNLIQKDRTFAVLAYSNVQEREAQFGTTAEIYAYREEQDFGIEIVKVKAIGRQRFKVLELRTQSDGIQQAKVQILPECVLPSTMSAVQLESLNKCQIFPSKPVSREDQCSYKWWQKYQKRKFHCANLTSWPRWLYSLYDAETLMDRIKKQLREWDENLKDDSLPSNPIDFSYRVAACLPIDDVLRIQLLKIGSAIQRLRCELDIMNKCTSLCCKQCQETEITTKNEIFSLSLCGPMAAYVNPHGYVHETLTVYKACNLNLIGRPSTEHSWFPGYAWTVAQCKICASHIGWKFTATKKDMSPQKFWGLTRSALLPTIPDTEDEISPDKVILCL
UniProt Q06187, whole entry: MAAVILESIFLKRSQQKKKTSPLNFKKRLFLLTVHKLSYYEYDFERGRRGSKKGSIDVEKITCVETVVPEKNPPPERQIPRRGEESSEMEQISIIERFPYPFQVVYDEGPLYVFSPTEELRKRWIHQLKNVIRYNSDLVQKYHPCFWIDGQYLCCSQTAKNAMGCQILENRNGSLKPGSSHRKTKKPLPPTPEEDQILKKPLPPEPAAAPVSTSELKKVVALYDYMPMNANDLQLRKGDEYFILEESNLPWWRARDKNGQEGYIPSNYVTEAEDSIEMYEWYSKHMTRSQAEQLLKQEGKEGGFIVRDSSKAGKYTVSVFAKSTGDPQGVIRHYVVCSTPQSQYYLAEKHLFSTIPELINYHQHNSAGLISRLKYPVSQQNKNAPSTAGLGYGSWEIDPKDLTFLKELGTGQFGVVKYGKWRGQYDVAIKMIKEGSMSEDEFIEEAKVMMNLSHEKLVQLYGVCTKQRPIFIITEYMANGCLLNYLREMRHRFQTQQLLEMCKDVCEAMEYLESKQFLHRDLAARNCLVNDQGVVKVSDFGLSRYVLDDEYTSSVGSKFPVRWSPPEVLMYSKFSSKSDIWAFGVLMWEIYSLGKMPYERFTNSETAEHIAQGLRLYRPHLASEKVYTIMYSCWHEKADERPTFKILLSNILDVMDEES
UniProt P45983, 1-384 isoform 3: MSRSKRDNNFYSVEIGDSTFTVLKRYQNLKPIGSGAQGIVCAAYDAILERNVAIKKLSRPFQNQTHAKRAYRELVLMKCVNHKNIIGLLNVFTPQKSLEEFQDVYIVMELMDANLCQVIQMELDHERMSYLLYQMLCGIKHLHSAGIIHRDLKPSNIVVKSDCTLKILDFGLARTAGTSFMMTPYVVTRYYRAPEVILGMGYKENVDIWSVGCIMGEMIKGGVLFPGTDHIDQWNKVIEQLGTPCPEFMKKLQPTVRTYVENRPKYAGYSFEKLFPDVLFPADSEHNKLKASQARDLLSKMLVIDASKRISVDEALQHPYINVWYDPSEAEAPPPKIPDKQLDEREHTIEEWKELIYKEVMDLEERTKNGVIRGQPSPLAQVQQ
UniProt O60502, whole entry: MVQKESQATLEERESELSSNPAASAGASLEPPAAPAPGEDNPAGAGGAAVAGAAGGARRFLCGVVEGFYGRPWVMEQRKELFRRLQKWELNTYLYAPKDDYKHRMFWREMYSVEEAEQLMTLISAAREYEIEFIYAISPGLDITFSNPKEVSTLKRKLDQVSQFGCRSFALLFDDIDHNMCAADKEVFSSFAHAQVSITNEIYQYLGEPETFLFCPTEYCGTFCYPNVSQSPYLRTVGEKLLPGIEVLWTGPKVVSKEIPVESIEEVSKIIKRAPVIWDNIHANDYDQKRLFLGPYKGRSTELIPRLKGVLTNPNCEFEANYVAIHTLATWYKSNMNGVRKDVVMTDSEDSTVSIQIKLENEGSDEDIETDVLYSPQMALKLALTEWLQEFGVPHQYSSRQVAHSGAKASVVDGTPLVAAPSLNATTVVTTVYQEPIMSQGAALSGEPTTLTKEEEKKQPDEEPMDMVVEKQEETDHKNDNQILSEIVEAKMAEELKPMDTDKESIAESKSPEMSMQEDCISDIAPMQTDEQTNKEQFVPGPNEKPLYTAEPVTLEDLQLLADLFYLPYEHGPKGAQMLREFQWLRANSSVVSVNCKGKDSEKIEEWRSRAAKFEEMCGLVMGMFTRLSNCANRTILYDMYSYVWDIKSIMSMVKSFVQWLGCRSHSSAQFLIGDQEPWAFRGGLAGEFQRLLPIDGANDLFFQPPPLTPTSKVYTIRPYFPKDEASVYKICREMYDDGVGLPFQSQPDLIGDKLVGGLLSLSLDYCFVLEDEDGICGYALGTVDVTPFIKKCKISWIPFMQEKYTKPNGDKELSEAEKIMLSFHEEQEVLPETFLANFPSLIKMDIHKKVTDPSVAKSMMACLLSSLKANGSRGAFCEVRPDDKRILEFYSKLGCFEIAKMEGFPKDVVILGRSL

Cc1ccc(C(=O)Nc2cccc(C)c2C(=O)O)cc1S(=O)(=O)Nc1ccc(Cl)c(Cl)c1 — ligand efficiency (RPA1 N-terminal domain; binding, fluorescence polarisation competition; with: FITC-ATRIP probe): 0.19
C/C=C/Cn1c(Cc2cc(OC)c(OC)c(OC)c2)nc2c(N)ncnc21 — ΔG (Heat shock protein HSP 90-alpha, N-terminal domain (HSP90AA1, Homo sapiens, UniProt P07900); isothermal titration calorimetry; 298 K, N-terminal domain): -7.77 ± 0.06 kcal/mol
CC(=O)N1CCC[C@H]1C(=O)N[C@@H](CCC(N)=O)C(=O)N[C@@H](CC(C)C)C(=O)N1CCC[C@H]1C(=O)N[C@@H](Cc1ccccc1)C(N)=O — apparent Ka (Protein-glutamine gamma-glutamyltransferase (TGM2, Homo sapiens, UniProt P21980); enzyme activity, activator, GLDH-coupled deamidation; noncompetitive model, with: Ca2+): ~1 mM
Cc1ccc(S(=O)(=O)OCCc2cn(CCc3c(C)[nH]c4cc(Cl)cc(Cl)c34)nn2)cc1 — Emax (GLP1R; cAMP accumulation, positive allosteric modulator, HTRF; 0.6 µM, purified compound, with: GLP-1(9-36) at EC20; baseline: BETP): 106 ± 3%
O=C(O)CCC(C(=O)/C=C/c1ccc(O)c(OC(F)(F)F)c1)C(=O)/C=C/c1ccc(O)c(OC(F)(F)F)c1 — Aβ band density (APP; SDS-PAGE western blot, item: Aβ1-42 species 75-200 kDa; 30 µM, 24 h, 37 °C, with: Aβ 10 µM; baseline: DMSO control): 200 ± 52%
CCn1c(-c2cc(NC(=O)c3cnccn3)n[nH]2)cc2ccc(OC)cc21 — maximal inhibition (Casein kinase II subunit alpha' (CSNK2A2, Homo sapiens, UniProt P19784); enzyme activity, inhibitor): 94.2%
CN1CCN(c2ccc(-c3cccc(CN4CCN(CCNC(=O)CCCCCCCNc5cccc6c5C(=O)N(C5CCC(=O)NC5=O)C6=O)CC4)c3)cc2NC(=O)c2c[nH]c(=O)cc2C(F)(F)F)CC1 (stereo not drawn) — Dmax (WD repeat-containing protein 5 (WDR5, Homo sapiens, UniProt P61964); degrader, immunoblot; MV4;11; 18 h): 77 ± 12%
CCOc1ccc(C(=O)C2=C(O)C(=O)N(CCN(C)C)C2c2cc(OC)ccc2OC)cc1 (stereo not drawn) — antagonist activity (FPR1; fMLF-induced calcium mobilization, antagonist; HL-60 expressing FPR1; concentration not given): inactive
NC(=O)c1cn(-c2ccc(F)cc2)c2ccc(NCCc3ccncc3)cc2c1=O — response (Grm2; calcium mobilization, negative allosteric modulator; 30 µM, with: glutamate 100 µM; baseline: glutamate maximum): 2.01 ± 0.4%
CC(=O)N[C@@H](CCC(N)=O)C(=O)N[C@H](C(=O)N[C@@H](C)C(=O)N[C@@H](CCCNC(=N)N)C(=O)N[C@@H](CCCCNC(=O)CCc1ccc(N=Nc2ccc(N(C)C)cc2)cc1)C(=O)N[C@@H](CO)C(=O)N[C@H](C(=O)NCC(=O)NCC(=O)NCCCNC(=S)Nc1ccc2c(c1)C(=O)OC21c2ccc(O)cc2Oc2cc(O)ccc21)[C@@H](C)O)[C@@H](C)O — Km of NAD+ (NAD-dependent protein deacetylase sirtuin-1 (SIRT1, Homo sapiens, UniProt Q96EB6); enzyme activity, substrate, plate reader kinetics; 2.5 µM, 7 nM enzyme, with: NAD+ 1 µM to 1 mM): 3 µM
Nc1nc(NCCc2ccc(Cl)cc2)nn1S(=O)(=O)c1ccc2ncsc2c1 — probe labelling (Lysophospholipase-like protein 1; activator, gel-based ABPP FP-rhodamine; baseline: DMSO): 1.6 fold
Cc1ncsc1-c1ccc([C@H](C)NC(=O)[C@@H]2C[C@@H](O)CN2C(=O)[C@@H](NC(=O)CCCCCCC(=O)N2CCN(C[C@]3(C)CCC(c4ccc(Cl)cc4)=C(CN4CCN(c5ccc(C(=O)NS(=O)(=O)c6ccc(N[C@H](CCN7CCOCC7)CSc7ccccc7)c(S(=O)(=O)C(F)(F)F)c6)cc5)CC4)C3)CC2)C(C)(C)C)cc1 — protein level (Induced myeloid leukemia cell differentiation protein Mcl-1 (MCL1, Homo sapiens, UniProt Q07820); western blot; WI-38 non-senescent; concentration not given, 24 h): no effect
O=C(O)CCNC(=O)c1ccc(NCc2cn(CC3(c4ccc(Cl)cc4)CC3)nn2)cc1 — Emax (GLP1R; cAMP accumulation, positive allosteric modulator, HTRF; 0.6 µM, with: GLP-1(9-36) at EC20; baseline: BETP): 80%
CCOC(=O)/C=C/CNCCCN1c2ccccc2CCc2ccccc21 — ubiquitination TR-FRET signal AUC (E3 ubiquitin-protein ligase NEDD4; inhibitor, Ub-TR-FRET; 3.704 µM, 1 h preincubation, HECT domain, with: ATP 2 mM; higher = more ubiquitination): 109000 a.u. and 108000 a.u. and 104000 a.u.
COc1cc([C@@H]2c3cc4c(cc3[C@@H](C=C(C)C)[C@H]3COC(=O)[C@H]23)OCO4)cc(OC)c1OC — EC50 (Leishmania infantum; iRFP fluorescence; mouse splenocytes infected, amastigote, iRFP, ex vivo splenic explant; 48 h): 9.3 ± 0.4 µM
COc1ccc(NC(=O)CN2CCCN(S(=O)(=O)c3ccc(F)cc3)CC2)c(OC)c1 — maximal response (GRM4; calcium mobilization, positive allosteric modulator; CHO cells with Gqi5; with: glutamate; baseline: PHCCC maximal response): 27.6 ± 1.3%
CCc1ccc(NC(=O)CSc2nc3ccc(OC)cc3[nH]2)cc1 — activity class (FPR1; calcium mobilization, agonist; transfected HL-60 cells; concentration not given): active
CC(=O)N1CCN(c2ccc(Nc3ncc4c(n3)N(C)C(=O)N(c3cc(NC(=O)c5ccc(CN6CCC(N(C)C)C6)c(C(F)(F)F)c5)ccc3C)C4)cn2)CC1 (stereo not drawn) — GI50 (FGFR4/Transcription factor ETV6 (Homo sapiens, UniProt P22455+P41212, V550E); cell proliferation; Ba/F3 TEL-FGFR4 V550E; 72 h): 24 nM
CC(C)(C)Nc1c(-c2ccc3c(c2)CN(C2CCC(=O)NC2=O)C3=O)nc2ccccn12 (stereo not drawn) — Dmax (WEE1/CRBN (Homo sapiens, UniProt P30291+Q96SW2); degrader, HiBiT; Jurkat; 5 h): > 98%
CCOC(=O)/C=C/CNCCCCN1c2ccccc2CCc2ccc(Cl)cc21 — ubiquitination TR-FRET signal AUC (E3 ubiquitin-protein ligase NEDD4; inhibitor, Ub-TR-FRET; 100 µM, 1 h preincubation, HECT domain, with: ATP 2 mM; higher = more ubiquitination): 8900 a.u. and 9000 a.u. and 8240 a.u. and 9690 a.u. and 8610 a.u. and 9230 a.u.
COC(=O)[C@@H]1C(c2nc3cc(Cl)ccc3o2)=Cc2cc3c(cc2[C@H]1c1cc(OC)c(OC)c(OC)c1)OCO3 — selectivity index (Leishmania; mouse splenocytes; baseline: CC50 over amastigote EC50): > 8.4
Nc1nc(SCc2ccc(Cl)cc2)nn1S(=O)(=O)c1cccc2nonc12 — probe labelling (Lysophospholipase-like protein 1; activator, gel-based ABPP FP-rhodamine; baseline: DMSO): 2 fold
CCOC(=O)/C=C/CNCCCN1c2ccccc2CCc2ccc([N+](=O)[O-])cc21 — ubiquitination TR-FRET signal AUC (E3 ubiquitin-protein ligase NEDD4; inhibitor, Ub-TR-FRET; 3.704 µM, 1 h preincubation, HECT domain, with: ATP 2 mM; higher = more ubiquitination): 106000 a.u. and 104000 a.u. and 102000 a.u.
c1ccc2c(CCNCCSSCCNCCc3c[nH]c4ccccc34)c[nH]c2c1 — activity increase (Glucose-6-phosphate 1-dehydrogenase (G6PD, Homo sapiens, UniProt P11413); activator; concentration not given, wild type enzyme): 20%
O=C(O)c1ccnc(C(=O)O)c1Nc1ccccc1[N+](=O)[O-] — remaining activity (Egl nine homolog 1 (EGLN1, Homo sapiens, UniProt Q9GZT9); inhibitor, HTRF; 400 µM): 100%
Cc1ccc(C(=O)Nc2cc(Cl)ccc2C(=O)O)cc1S(=O)(=O)Nc1ccc(Br)cc1 — ligand efficiency (RPA1 N-terminal domain; binding, fluorescence polarisation competition; with: FITC-ATRIP probe): 0.21
O=C(Nc1ccc(F)cc1)C12CC1/C(=N\O)c1ccccc1O2 (stereo not drawn) — response (GRM4; positive allosteric modulator, calcium mobilization; CHO expressing Gqi5; concentration not given, with: glutamate EC20; baseline: (±)-PHCCC): 71.6 ± 5.1%
NC(=O)c1cn(-c2ccc(F)cc2)c2ccc(OCc3cccnc3)cc2c1=O — response (Grm2; calcium mobilization, negative allosteric modulator; 30 µM, with: glutamate 100 µM; baseline: glutamate maximum): 1.63 ± 0.33%
COC(=O)[C@@]1(C)C=C(C(=O)Nc2cccc(C(=O)NC34CC(Nc5nccc(-c6cccnc6)n5)(C3)C4)c2)C(=O)CC1 — remaining activity (Mitogen-activated protein kinase 9 (MAPK9, Homo sapiens, UniProt P45984); enzyme activity, inhibitor; 44.44 µM): 0.0322 fraction of control
CC(C)(C)c1ccnc(NC(=O)c2ccc(-c3nn([C@@H]4CCCN(C(=O)C5CC5)C4)c4ncnc(N)c34)cc2)c1 — residence time (Tyrosine-protein kinase BTK, non-phosphorylated (BTK, Homo sapiens, UniProt Q06187); TR-FRET binding kinetics; 37 °C, unphosphorylated enzyme): 2.4 ± 0.3 min
CCCCCCCC(=O)OCC(COP(=O)(O)OC1C(O)C(OP(=O)(O)O)C(OP(=O)(O)O)C(OP(=O)(O)O)C1O)OC(=O)CCCCCCC (stereo not drawn) — Hill coefficient (CNGA3/CNGB3 (Homo sapiens, UniProt Q16281+Q9NQW8); increase in cGMP K1/2, modulator, inside-out patch clamp; CNGA3/CNGB3 heteromer): 1.4
COc1ccc2[nH]cc(/C=C/c3ccncc3)c2c1 — inhibition (Amyloid-beta precursor protein, Aβ1-40 (APP, Homo sapiens, UniProt P05067); Aβ40 aggregation, thioflavin T fluorescence; 25 µM): 61%
CN(C)C(=O)CCC(C(=O)/C=C/c1ccc(O)c(OC(F)(F)F)c1)C(=O)/C=C/c1ccc(O)c(OC(F)(F)F)c1 — Aβ band density (APP; SDS-PAGE western blot, item: Aβ1-42 species 75-200 kDa; 30 µM, 24 h, 37 °C, with: Aβ 10 µM; baseline: DMSO control): 570 ± 231%
COc1ccc(NC(=O)CN2CCCN(S(=O)(=O)c3sc(C)nc3C)CC2)c(OC)c1 — maximal response (GRM4; calcium mobilization, positive allosteric modulator; CHO cells with Gqi5; with: glutamate; baseline: PHCCC maximal response): 47.7 ± 2.1%
Nc1ncc(-c2ccc3ncnc(N4CCc5cc(F)c(Cl)cc54)c3c2)cn1 — dose-normalised AUC(0-t) (CD1 mouse, plasma; intravenous, 5 mg/kg): 152 mg·h/mL
Cc1ccc(C(=O)Nc2cc(Cl)ccc2C(=O)O)cc1S(=O)(=O)Nc1cccc(Cl)c1 — ligand efficiency (RPA1 N-terminal domain; binding, fluorescence polarisation competition; with: FITC-ATRIP probe): 0.23
Cc1cc(NC(=O)c2cccc(NC(=O)C3=CC(C)(C)CC3=O)c2)ccc1Nc1nccc(-c2cccnc2)n1 — remaining activity (Mitogen-activated protein kinase 8 (MAPK8, Homo sapiens, UniProt P45983); kinase activity, inhibitor; 133.3 µM, unit not given, with: 10 mM GSH; baseline: DMSO): 0.0265
CC(=O)Nc1ncc(CN2CC[C@H](Oc3cccc(F)n3)C[C@@H]2C)s1 [isotope labelled] — Bmax (Protein O-GlcNAcase (OGA, Homo sapiens, UniProt O60502); saturation binding; human striatum homogenate; radiolabelled compound): 36.7 ± 2.6 nM
COc1cc(Cl)ccc1-c1nc(Nc2nc3ccccc3o2)ncc1C#N — maximal response (Metabotropic glutamate receptor 5 (Grm5, Rattus norvegicus, UniProt P31424); calcium mobilization, negative allosteric modulator; with: glutamate EC80; baseline: glutamate maximum): 2 ± 0.2%

Some of these lines once more:
Nc1ncc(-c2ccc3ncnc(N4CCc5cc(F)c(Cl)cc54)c3c2)cn1 — dose-normalised AUC(0-t) (CD1 mouse, plasma; intravenous, 5 mg/kg): 152 mg·h/mL
Cc1ccc(C(=O)Nc2cc(Cl)ccc2C(=O)O)cc1S(=O)(=O)Nc1cccc(Cl)c1 — ligand efficiency (RPA1 N-terminal domain; binding, fluorescence polarisation competition; with: FITC-ATRIP probe): 0.23
